Experimental data pooled from the literature.
Each numbered part is a random draw from the data of one study; scales do not carry over between parts. Changes are numbered by the printed parent chain.
Chain of UniProt P10721 (whole entry, unmodified, looked up): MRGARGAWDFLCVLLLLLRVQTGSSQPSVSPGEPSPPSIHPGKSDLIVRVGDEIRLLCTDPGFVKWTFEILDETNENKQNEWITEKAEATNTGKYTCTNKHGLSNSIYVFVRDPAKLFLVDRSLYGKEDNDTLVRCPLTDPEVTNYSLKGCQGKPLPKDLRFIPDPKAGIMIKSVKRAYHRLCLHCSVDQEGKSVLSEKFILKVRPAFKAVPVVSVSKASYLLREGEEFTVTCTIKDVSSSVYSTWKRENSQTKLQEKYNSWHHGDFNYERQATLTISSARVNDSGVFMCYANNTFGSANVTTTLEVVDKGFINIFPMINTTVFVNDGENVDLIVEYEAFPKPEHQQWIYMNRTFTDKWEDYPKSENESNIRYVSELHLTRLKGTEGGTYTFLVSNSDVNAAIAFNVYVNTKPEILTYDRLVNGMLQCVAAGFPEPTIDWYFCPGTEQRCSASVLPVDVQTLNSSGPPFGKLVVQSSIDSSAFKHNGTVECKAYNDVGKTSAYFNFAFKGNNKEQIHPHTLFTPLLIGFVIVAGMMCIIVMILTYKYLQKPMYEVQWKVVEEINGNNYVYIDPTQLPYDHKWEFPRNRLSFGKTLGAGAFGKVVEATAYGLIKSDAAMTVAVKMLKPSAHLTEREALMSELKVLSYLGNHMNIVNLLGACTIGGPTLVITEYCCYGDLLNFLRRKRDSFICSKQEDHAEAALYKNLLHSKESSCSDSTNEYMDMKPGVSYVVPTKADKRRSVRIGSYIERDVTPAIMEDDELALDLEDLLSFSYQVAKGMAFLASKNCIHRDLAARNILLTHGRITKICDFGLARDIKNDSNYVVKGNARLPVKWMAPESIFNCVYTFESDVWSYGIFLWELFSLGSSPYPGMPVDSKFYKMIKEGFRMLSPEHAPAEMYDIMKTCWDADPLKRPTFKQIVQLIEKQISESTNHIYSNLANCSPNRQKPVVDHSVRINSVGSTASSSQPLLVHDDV
Chain of UniProt P07947 (whole entry, looked up): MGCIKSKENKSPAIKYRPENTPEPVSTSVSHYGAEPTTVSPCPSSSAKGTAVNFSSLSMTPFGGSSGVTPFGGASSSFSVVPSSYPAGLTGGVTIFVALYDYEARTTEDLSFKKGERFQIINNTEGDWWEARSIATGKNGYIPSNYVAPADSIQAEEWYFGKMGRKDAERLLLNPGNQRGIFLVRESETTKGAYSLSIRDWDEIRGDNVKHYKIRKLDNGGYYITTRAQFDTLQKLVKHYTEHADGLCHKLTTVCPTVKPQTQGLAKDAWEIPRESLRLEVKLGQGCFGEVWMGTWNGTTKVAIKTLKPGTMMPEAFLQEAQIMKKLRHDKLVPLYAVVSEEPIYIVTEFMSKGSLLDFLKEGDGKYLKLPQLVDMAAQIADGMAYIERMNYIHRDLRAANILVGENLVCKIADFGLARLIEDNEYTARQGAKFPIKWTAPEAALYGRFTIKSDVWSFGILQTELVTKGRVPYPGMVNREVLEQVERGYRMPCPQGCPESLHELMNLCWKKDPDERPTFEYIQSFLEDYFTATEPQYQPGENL
Chain of UniProt P42684 (whole entry, looked up): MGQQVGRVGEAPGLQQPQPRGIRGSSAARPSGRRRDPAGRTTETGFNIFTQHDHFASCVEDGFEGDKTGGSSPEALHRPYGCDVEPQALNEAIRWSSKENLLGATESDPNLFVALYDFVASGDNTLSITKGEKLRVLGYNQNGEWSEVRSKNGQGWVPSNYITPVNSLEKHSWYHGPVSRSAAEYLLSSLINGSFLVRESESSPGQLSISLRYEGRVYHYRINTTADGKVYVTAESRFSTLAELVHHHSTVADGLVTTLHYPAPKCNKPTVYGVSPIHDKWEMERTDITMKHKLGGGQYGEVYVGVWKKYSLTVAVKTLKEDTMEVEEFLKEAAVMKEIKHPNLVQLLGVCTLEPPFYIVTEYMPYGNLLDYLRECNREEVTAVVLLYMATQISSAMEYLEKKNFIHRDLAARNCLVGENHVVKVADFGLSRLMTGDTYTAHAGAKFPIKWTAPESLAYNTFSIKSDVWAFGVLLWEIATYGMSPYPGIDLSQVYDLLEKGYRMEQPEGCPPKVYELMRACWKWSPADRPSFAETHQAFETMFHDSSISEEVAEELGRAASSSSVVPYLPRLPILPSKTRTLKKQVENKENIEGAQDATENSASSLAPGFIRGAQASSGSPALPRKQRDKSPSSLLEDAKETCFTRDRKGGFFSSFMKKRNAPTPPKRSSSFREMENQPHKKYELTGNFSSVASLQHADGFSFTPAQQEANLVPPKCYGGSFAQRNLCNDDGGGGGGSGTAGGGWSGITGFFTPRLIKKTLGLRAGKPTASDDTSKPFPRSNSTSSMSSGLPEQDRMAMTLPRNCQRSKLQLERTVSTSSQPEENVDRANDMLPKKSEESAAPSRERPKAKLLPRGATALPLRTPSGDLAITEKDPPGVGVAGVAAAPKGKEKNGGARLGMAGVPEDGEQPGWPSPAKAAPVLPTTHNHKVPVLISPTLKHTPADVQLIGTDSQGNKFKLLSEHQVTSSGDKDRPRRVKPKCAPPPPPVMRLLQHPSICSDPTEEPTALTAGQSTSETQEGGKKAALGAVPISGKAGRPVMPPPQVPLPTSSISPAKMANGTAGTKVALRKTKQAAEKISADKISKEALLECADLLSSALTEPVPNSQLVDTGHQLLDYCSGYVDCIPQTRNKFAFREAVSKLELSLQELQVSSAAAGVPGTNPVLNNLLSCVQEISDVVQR
Chain of UniProt P51813 (whole entry, looked up): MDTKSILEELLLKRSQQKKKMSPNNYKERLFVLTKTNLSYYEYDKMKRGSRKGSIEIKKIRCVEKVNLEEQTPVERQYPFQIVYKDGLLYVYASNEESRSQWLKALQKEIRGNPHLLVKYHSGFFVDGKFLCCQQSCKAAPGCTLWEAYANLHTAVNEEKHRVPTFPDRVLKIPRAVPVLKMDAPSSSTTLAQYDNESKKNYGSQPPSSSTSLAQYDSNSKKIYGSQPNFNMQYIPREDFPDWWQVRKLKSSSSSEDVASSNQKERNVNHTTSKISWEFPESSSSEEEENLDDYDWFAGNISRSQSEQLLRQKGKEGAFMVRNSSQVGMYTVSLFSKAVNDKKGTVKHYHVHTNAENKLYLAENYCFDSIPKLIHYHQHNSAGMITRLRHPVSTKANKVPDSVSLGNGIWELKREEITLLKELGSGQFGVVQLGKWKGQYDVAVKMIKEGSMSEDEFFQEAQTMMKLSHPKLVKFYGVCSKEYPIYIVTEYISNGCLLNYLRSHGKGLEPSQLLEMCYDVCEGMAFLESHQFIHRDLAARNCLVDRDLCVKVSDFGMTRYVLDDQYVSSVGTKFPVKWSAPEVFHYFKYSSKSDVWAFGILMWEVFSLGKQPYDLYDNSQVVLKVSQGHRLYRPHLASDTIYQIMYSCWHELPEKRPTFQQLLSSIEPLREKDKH
Chain of UniProt O00329 (whole entry, looked up): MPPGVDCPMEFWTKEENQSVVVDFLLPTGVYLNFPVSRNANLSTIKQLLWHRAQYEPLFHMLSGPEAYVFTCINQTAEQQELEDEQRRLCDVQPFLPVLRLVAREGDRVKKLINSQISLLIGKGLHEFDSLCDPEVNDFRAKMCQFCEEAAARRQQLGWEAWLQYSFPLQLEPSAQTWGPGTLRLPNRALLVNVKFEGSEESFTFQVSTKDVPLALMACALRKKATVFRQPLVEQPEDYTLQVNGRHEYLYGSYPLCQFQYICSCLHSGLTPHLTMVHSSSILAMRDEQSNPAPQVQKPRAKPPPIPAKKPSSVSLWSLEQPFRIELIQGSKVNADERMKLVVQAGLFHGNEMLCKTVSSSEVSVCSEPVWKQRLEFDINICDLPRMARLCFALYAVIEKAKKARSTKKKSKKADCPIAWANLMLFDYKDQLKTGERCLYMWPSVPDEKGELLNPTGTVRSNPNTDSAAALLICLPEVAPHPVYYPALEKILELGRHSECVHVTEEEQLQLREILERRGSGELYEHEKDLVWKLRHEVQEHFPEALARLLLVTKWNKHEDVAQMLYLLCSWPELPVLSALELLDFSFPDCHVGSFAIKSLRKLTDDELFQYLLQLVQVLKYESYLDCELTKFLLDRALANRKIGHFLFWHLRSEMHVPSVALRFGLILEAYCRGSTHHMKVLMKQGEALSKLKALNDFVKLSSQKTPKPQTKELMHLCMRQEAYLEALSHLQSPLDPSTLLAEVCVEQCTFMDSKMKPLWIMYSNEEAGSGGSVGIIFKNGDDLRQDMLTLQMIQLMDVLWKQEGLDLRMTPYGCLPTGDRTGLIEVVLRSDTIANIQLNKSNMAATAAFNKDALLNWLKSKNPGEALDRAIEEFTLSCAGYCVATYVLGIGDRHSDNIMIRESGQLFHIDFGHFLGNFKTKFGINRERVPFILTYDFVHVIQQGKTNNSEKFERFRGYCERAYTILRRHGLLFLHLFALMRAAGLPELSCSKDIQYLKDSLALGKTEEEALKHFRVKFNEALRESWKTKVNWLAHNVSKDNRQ
Chain of UniProt Q96BR1 (whole entry, looked up): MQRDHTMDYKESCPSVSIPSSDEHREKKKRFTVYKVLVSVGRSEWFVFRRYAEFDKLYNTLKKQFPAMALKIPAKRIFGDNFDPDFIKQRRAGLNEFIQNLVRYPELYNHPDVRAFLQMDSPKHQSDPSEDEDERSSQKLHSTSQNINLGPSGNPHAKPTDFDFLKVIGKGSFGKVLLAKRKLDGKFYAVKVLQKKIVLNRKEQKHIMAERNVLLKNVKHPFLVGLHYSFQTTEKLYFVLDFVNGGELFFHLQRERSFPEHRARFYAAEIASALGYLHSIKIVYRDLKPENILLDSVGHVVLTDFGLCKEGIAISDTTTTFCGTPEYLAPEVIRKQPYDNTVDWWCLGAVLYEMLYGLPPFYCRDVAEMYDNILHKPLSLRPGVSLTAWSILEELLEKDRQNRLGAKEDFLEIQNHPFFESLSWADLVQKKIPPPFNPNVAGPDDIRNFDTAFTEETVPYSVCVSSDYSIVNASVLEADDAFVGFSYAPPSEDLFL

Block 1
Target: Sal-like protein 4, full length isoform B (SALL4, Homo sapiens, UniProt Q9UJQ4-2, residues 1-616)
Technique: universal PBM
Molecule type: double-stranded DNA, one strand shown
Sample: in vitro
Tested at: not given
Setting: 8-mer, flanks averaged, mean of replicates
Reading: higher = stronger binding
| Oligonucleotide | E-score |
| --- | --- |
| GCTTTTTA | 0.194 |
| AAACCTTT | 0.112 |
| GTTCTCCA | -0.0838 |
| GCAGAGTA | 0.0604 |
| GCTTTACA | 0.0801 |
| CCGTATAG | 0.0595 |
| GACGCAGA | -0.224 |
| CAGCCTAG | -0.0837 |

Block 2
Structure (SMILES): O=C1NC(=O)c2c1c1c3ccccc3[nH]c1c1[nH]c3cc(Br)ccc3c21
Effect on: enzyme activity
Mode: inhibitor
Tested at: 0.5 µM
Baseline: control
| target | remaining activity [%] |
| --- | --- |
| LCK (Homo sapiens, UniProt P06239) | 88.9 |
| NEK1 (Homo sapiens, UniProt Q96PY6) | 89.1 |
| MAP3K5 (Homo sapiens, UniProt Q99683) | 94.9 |
| FGFR3 (Homo sapiens, UniProt P22607) | 86.2 |
| ACVR1B (Homo sapiens, UniProt P36896) | 101 |
| TEK (Homo sapiens, UniProt Q02763) | 93.8 |
| RPS6KA2 (Homo sapiens, UniProt Q15349) | 37.9 |
| CSNK1G2 (Homo sapiens, UniProt P78368) | 89.5 |
| GSK3B (Homo sapiens, UniProt P49841) | 63.7 |
| ABL2 (Homo sapiens, UniProt P42684) | 93.8 |
| JAK3 (Homo sapiens, UniProt P52333) | 77 |
| FRK (Homo sapiens, UniProt P42685) | 93.9 |
| MAPKAPK2 (Homo sapiens, UniProt P49137) | 101 |

Block 3
SMILES: C[C@H](c1ccc(F)cc1)N(Cc1cccc(C(=O)O)c1)C(=O)c1cnc2ccccc2c1
Effect on: cell-free assay
Technique: competition with immobilised ligand
Tested at: 1 µM
| target | remaining binding [%] |
| --- | --- |
| MAP3K14 (Homo sapiens, UniProt Q99558) | 100 |
| Ribosomal protein S6 kinase alpha-4, C-terminal kinase domain (RPS6KA4, Homo sapiens, UniProt O75676) | 100 |
| Ribosomal protein S6 kinase alpha-3, N-terminal kinase domain (RPS6KA3, Homo sapiens, UniProt P51812) | 100 |
| TAOK1 (Homo sapiens, UniProt Q7L7X3) | 100 |
| CIT (Homo sapiens, UniProt O14578) | 100 |
| Tyrosine-protein kinase ABL1, non-phosphorylated (ABL1, Homo sapiens, UniProt P00519) | 76 |
| EPHB1 (Homo sapiens, UniProt P54762) | 83 |
| PLK2 (Homo sapiens, UniProt Q9NYY3) | 100 |
| PIK3CD (Homo sapiens, UniProt O00329) | 100 |
| SNRK (Homo sapiens, UniProt Q9NRH2) | 96 |
| BMX (Homo sapiens, UniProt P51813) | 99 |
| KIT (Homo sapiens, UniProt P10721, T670I/V559D) | 98 |
| MAP4K5 (Homo sapiens, UniProt Q9Y4K4) | 100 |
| PIK3CA (Homo sapiens, UniProt P42336, H1047Y) | 100 |
| KIT (Homo sapiens, UniProt P10721, A829P) | 92 |
| Tyrosine-protein kinase ABL1, phosphorylated (ABL1, Homo sapiens, UniProt P00519, M351T) | 94 |
| SGK3 (Homo sapiens, UniProt Q96BR1) | 100 |
| YES1 (Homo sapiens, UniProt P07947) | 100 |
| EPHA5 (Homo sapiens, UniProt P54756) | 98 |
| CSNK1A1 (Homo sapiens, UniProt P48729) | 100 |
| Tyrosine-protein kinase ABL1, non-phosphorylated (ABL1, Homo sapiens, UniProt P00519, H396P) | 73 |

Block 4
Target: ATF2, bZIP domain (human)
Technique: DHFR protein complementation
Sample: yeast
Setting: single substitutions, most at no-binding floor
Baseline: wild-type JUN-FOS pair
Reading: higher = stronger binding
Parent: JUN, bZIP domain (human); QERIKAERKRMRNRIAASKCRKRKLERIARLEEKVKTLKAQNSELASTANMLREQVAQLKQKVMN; partner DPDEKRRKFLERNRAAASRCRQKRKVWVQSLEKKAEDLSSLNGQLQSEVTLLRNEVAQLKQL
| Variant | binding fitness [natural log] |
| --- | --- |
| K34E | -1.49 |
| A29V | -1.44 |
| A29S | -1.33 |
| L45P | -1.52 |
| A49H | -1.5 |
| S47Y | -1.42 |
| S43F | -1.41 |
| I28G | -1.45 |

Repeated from above (block 4):
| Variant | binding fitness [natural log] |
| --- | --- |
| K34E | -1.49 |
| A29V | -1.44 |
| A29S | -1.33 |
| L45P | -1.52 |
| A49H | -1.5 |
| S47Y | -1.42 |
| S43F | -1.41 |
| I28G | -1.45 |
